Results from different studies.
Each numbered part is a random draw from the data of one study; scales do not carry over between parts. “And” joins repeats or separate records; there may be more than shown.
Chain of UniProt P41743 (whole entry, looked up): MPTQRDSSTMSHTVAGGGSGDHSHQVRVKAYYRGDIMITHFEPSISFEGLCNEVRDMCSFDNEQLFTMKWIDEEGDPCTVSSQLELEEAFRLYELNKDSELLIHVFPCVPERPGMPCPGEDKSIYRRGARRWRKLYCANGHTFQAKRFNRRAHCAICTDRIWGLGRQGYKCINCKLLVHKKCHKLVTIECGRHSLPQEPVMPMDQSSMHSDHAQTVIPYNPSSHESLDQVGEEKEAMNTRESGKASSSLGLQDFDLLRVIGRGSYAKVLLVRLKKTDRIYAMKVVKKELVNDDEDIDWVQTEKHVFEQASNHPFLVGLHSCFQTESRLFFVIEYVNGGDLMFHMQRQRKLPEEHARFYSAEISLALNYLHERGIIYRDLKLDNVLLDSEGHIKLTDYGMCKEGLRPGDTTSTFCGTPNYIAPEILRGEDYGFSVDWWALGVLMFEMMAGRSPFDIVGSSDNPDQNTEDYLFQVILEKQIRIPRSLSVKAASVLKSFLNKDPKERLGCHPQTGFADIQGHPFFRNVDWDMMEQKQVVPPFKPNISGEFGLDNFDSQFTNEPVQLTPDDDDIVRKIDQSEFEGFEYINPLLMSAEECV
Chain of UniProt P54764 (whole entry, looked up): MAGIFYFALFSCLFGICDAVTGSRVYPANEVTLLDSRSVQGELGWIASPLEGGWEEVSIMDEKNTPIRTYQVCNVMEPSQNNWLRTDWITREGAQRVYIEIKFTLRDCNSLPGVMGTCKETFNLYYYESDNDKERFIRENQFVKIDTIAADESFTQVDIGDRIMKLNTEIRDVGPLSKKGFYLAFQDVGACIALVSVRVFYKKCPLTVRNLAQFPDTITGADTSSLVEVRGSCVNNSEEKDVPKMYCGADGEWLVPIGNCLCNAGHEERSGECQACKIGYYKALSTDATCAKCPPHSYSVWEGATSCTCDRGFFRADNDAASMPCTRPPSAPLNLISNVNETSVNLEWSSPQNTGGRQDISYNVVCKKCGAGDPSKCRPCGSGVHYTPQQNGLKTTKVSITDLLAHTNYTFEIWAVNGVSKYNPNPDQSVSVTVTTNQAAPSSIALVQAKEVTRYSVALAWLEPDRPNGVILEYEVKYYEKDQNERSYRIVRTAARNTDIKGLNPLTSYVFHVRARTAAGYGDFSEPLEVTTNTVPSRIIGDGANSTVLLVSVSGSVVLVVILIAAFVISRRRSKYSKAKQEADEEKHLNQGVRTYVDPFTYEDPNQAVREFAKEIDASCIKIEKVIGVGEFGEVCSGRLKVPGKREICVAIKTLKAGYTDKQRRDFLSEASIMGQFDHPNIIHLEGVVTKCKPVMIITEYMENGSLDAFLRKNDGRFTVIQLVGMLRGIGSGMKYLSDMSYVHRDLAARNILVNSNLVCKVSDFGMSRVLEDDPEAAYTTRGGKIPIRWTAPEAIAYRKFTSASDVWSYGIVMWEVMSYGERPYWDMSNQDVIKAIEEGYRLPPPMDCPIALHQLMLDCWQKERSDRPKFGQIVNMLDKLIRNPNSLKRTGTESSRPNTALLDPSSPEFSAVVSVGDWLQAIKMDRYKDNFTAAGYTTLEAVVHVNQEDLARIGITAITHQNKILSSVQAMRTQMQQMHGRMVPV
Chain of UniProt Q15569 (whole entry, looked up): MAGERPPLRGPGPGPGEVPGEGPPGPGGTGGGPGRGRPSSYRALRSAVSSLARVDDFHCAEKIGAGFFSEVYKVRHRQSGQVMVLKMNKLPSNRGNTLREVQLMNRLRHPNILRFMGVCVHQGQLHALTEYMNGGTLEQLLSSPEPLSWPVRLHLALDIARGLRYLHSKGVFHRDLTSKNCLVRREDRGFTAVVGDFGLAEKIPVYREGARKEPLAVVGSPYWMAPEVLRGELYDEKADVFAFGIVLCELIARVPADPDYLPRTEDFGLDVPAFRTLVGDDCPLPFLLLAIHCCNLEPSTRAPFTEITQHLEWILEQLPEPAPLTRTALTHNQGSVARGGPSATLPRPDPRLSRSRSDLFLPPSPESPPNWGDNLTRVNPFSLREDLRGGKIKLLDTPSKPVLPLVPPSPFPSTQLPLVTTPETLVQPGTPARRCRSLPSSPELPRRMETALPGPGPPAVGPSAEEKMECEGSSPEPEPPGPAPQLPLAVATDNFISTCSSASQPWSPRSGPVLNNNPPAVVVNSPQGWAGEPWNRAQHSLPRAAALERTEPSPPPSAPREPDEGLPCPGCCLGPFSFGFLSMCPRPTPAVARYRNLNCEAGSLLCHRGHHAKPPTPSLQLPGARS
Chain of UniProt Q8NI60 (whole entry, looked up): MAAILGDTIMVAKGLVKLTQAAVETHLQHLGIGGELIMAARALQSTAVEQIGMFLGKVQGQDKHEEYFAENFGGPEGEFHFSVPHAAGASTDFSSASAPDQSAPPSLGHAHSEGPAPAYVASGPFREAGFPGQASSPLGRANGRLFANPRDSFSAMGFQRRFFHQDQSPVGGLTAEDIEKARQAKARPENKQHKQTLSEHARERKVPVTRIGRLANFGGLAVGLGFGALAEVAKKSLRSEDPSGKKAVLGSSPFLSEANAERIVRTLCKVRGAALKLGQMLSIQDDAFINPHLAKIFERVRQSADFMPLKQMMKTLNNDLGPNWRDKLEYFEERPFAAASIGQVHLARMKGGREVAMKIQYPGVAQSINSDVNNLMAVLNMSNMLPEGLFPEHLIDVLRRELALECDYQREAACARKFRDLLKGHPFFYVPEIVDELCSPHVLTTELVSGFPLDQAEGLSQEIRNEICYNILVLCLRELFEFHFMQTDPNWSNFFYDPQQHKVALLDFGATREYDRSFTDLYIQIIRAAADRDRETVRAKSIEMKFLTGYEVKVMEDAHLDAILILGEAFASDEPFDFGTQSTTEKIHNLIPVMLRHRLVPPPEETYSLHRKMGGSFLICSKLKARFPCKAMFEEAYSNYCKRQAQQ
Chain of UniProt Q8IWQ3 (whole entry, looked up): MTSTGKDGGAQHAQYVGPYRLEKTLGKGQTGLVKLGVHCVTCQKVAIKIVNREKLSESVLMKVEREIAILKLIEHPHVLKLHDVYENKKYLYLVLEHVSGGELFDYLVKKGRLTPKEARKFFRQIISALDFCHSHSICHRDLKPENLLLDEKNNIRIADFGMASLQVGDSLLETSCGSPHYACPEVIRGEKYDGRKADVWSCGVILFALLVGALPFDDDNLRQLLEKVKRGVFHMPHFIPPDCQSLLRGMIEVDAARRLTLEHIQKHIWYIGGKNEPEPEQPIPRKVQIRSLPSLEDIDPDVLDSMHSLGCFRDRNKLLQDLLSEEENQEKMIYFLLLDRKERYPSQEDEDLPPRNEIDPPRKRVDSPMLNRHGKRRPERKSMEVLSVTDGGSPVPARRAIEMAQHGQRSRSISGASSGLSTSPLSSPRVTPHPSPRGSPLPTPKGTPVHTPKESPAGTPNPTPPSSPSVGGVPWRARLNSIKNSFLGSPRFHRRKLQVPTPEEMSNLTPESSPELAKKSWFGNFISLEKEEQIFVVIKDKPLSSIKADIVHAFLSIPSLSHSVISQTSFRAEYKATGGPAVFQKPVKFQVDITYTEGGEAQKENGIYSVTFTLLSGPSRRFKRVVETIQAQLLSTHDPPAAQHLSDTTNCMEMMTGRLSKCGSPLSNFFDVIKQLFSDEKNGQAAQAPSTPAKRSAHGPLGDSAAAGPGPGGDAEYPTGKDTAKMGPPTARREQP
Chain of UniProt Q02156 (whole entry, looked up): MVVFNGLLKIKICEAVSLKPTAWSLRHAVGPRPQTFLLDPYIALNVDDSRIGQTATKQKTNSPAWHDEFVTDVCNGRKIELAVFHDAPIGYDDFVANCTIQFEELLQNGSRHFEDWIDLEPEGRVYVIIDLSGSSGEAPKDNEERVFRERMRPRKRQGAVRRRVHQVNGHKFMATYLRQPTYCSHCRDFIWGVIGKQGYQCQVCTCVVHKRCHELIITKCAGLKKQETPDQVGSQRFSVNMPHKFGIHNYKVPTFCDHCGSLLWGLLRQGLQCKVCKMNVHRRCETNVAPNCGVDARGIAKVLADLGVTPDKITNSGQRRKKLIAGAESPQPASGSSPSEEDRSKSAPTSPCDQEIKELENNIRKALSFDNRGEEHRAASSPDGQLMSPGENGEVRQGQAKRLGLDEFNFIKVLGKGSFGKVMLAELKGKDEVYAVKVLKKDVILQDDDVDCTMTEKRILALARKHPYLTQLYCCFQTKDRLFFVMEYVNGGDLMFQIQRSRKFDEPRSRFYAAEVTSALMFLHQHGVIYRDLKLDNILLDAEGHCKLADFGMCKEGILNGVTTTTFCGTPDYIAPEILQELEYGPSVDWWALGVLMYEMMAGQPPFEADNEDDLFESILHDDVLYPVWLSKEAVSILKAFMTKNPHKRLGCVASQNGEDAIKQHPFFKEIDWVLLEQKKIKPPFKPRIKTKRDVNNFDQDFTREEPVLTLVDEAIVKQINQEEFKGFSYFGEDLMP

Set 1 — technique: competition with immobilised ligand; tested at: 1 µM
SMILES: CC(=O)N1CCC(c2ccc(C(=O)NC3=NCCN3)cc2C(F)(F)F)CC1
| target | read-out | remaining binding [%] |
| --- | --- | --- |
| COQ8A (Homo sapiens, UniProt Q8NI60) | cell-free assay | 95 |
| Tyrosine-protein kinase ABL1, non-phosphorylated (ABL1, Homo sapiens, UniProt P00519, F317I) | binding | 77 |
| EIF2AK1 (Homo sapiens, UniProt Q9BQI3) | cell-free assay | 83 |
| PDGFRA (Homo sapiens, UniProt P16234) | cell-free assay | 92 |
| STK32B (Homo sapiens, UniProt Q9NY57) | cell-free assay | 100 |
| HIPK4 (Homo sapiens, UniProt Q8NE63) | cell-free assay | 100 |
| EPHA4 (Homo sapiens, UniProt P54764) | cell-free assay | 100 |
| PIK3CA (Homo sapiens, UniProt P42336, I800L) | cell-free assay | 94 |
| BRSK2 (Homo sapiens, UniProt Q8IWQ3) | cell-free assay | 100 |
| MARK1 (Homo sapiens, UniProt Q9P0L2) | cell-free assay | 100 |
| MAP3K12 (Homo sapiens, UniProt Q12852) | cell-free assay | 100 |
| TESK1 (Homo sapiens, UniProt Q15569) | cell-free assay | 72 |
| Mast/stem cell growth factor receptor Kit, autoinhibited (KIT, Homo sapiens, UniProt P10721) | cell-free assay | 91 |
| PLK4 (Homo sapiens, UniProt O00444) | cell-free assay | 100 |
| WNK1 (Homo sapiens, UniProt Q9H4A3) | cell-free assay | 99 |
| MUSK (Homo sapiens, UniProt O15146) | cell-free assay | 90 |
| PRKCI (Homo sapiens, UniProt P41743) | cell-free assay | 83 |
| PRKCE (Homo sapiens, UniProt Q02156) | cell-free assay | 84 |
| STK17A (Homo sapiens, UniProt Q9UEE5) | cell-free assay | 100 |
| ZAP70 (Homo sapiens, UniProt P43403) | cell-free assay | 97 |
| RIOK1 (Homo sapiens, UniProt Q9BRS2) | cell-free assay | 100 |

Set 2 — cell line: mouse MPNST tumor cells; technique: high-content immunofluorescence imaging; item: nuclear SOX9; tested at: 10 µM; time: 12 h; notes: mean of 2 replicates; reference: DMSO control; direction: higher = more nuclear SOX9
| Structure (SMILES) | nuclear SOX9 intensity |
| --- | --- |
| COc1cc(C(=O)NCc2ccc(OCCN(C)C)cc2)cc(OC)c1OC | 99.9 % of DMSO and 110 % of DMSO |
| Nc1nc(=S)c2ncn([C@@H]3O[C@H](CO)[C@@H](O)[C@H]3O)c2[nH]1 | 109 % of DMSO |
| CCN1C(=CC(C)=O)Sc2ccc(OC)cc21 | 80.5 % of DMSO |
| C[C@@H]1CCN(C(=O)CC#N)C[C@@H]1N(C)c1ncnc2[nH]ccc12 | 99.6 % of DMSO |
| O=C(O)c1cnccn1 | 88.8 % of DMSO |
| Oc1c(Cl)cc(Cl)c(Cl)c1Cc1c(O)c(Cl)cc(Cl)c1Cl | 105 % of DMSO |
| CC1CCc2c(cc(Br)c(F)c2Br)N1C=O (stereo not drawn) | 100 % of DMSO |
| CN1CCCC1CCn1cc(C2=C(c3c[nH]c4ccccc34)C(=O)NC2=O)c2ccccc21 (stereo not drawn) | 113 % of DMSO |
| Cc1[nH]c(/C=C2\C(=O)Nc3cc(-c4ccccc4)ccc32)c(C)c1CCC(=O)O | 185 % of DMSO |
| O=C(Oc1nsnc1N1CCCCC1)N1CCOCC1 | 101 % of DMSO |
| CCC(=N\O)/C(C)=C/c1ccc(F)cc1 | 108 % of DMSO |
| c1ccc2c(c1)CCCC2C1=NCCN1 (stereo not drawn) | 89.7 % of DMSO |

Set 3 — read-out: enzyme activity; action: inhibitor; tested at: 0.5 µM; reference: control
Target: RAF proto-oncogene serine/threonine-protein kinase (RAF1, Homo sapiens, UniProt P04049)
Chain of UniProt P04049 (whole entry, looked up): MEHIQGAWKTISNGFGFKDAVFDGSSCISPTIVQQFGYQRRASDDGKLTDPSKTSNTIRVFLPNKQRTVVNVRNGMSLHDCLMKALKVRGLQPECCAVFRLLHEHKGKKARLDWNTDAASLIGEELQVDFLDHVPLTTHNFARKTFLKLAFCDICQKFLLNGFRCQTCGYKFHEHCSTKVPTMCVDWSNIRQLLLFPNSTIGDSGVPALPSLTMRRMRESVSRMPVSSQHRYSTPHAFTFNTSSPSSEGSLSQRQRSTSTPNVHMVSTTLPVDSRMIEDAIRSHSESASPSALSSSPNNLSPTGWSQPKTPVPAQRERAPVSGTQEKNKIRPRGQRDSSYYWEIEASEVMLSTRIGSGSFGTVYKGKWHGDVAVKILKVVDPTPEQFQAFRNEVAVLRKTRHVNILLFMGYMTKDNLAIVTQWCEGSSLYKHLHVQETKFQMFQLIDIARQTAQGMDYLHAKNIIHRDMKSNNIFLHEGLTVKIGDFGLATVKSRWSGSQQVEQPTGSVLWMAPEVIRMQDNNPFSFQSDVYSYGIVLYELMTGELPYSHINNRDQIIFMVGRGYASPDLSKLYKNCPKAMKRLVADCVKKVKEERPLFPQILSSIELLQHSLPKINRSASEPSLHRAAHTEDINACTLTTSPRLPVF
| Compound | remaining activity [%] |
| --- | --- |
| Clc1ccc(Nc2nnc(Cc3ccncc3)c3ccccc23)cc1 | 93.3 |
| CC(C)(C)c1nc2c3cc[nH]c(=O)c3c3cc(F)ccc3c2[nH]1 | 134 |
| O=C(O)/C=C/c1cc(Br)c(Br)c(Br)c1Br | 91.3 |
| COc1cc2c(Nc3ccc(Br)cc3F)ncnc2cc1OCC1CCN(C)CC1 | 81.1 |
| CC(C)n1cnc2c(Nc3cccc(Cl)c3)nc(NCCO)nc21 | 105 |
| N#CC(c1ccnc(NCCc2cccnc2)n1)c1nc2ccccc2s1 (stereo not drawn) | 84 |
| O=c1c(-c2ccc(F)cc2)c(-c2ccncc2)[nH]n1-c1ccc(Cl)cc1 | 61.4 |
| O=C(c1ccccc1)c1ccc(N2CCOCC2)cc1O | 95.9 |
| O=C1c2ccccc2-c2nc3nnnn3nc21 | 76.1 |
| Nc1nc(Nc2ccc(S(N)(=O)=O)cc2)nn1C(=S)Nc1c(F)cccc1F | 110 |
| CCCCc1c(-c2ccc(O)cc2)[nH]c2nccnc12 | 106 |
| CNc1cc2c(Nc3cccc(Br)c3)ncnc2cn1 | 87.8 |
| CC(C)N(CCC(=O)c1ccc2ccccc2c1)Cc1ccccc1 | 87.3 |
| NC(=O)c1cccc(-c2cc(Nc3ccc(OC(F)(F)F)cc3)ncn2)c1 | 105 |
| O=Nc1c(-c2c(O)[nH]c3ccccc23)[nH]c2ccccc12 | 99.3 |
| NC(=O)c1ccc(-c2nc(-c3ccc4c(c3)OCCO4)c(-c3ccccn3)[nH]2)cc1 | 91.7 |
| O=C1NC(=O)/C(=C/c2ccc3c(c2)OC(F)(F)O3)S1 | 95.5 |
| N#C/C(=C(/N)SC1C=CC=CC1)c1cccc(C(O)c2ccncc2)c1 (stereo not drawn) | 99.1 |
| CCN(CC)CCCCN1c2ccccc2Oc2ccc(Cl)cc21 | 105 |
| c1cc(-c2cnn3cc(-c4ccc(OCCN5CCCCC5)cc4)cnc23)ccn1 | 102 |
| FC(F)(F)c1ccc(/C=C/c2nc(COc3ccc(CCCCn4ccnn4)cc3)co2)cc1 | 97.1 |
| C[C@@H](N)[C@H]1CC[C@H](C(=O)Nc2ccncc2)CC1 | 103 |

Set 4 — read-out: AlphaScreen signal; technique: AlphaScreen counter screen; sample: His6 peptide without bromodomain; tested at: 50 µM; notes: assay interference check
| SMILES | inhibition |
| --- | --- |
| O=c1ccc2ccc(O)c(O)c2o1 | 10.9% |
| CCCCCCOC(=O)[C@]1(O)C[C@@H]2O[C@@]1(C)n1c3ccccc3c3c4c(c5c6ccccc6n2c5c31)C(=O)NC4 | 21.2% |
| Cc1ccc(-c2csc3nc[nH]c(=O)c23)cc1C | 16.1% |
| CC(C)n1cnc2c(NCc3ccccc3O)nc(NCCCO)nc21 | 8.8% |
| CC(C)Oc1cc(Nc2nc(N[C@@H](C)c3ccc(F)cn3)ncc2Cl)[nH]n1 | 19.9% |
| CC(=O)Nc1cccc(NC(=O)CSc2ccc3nnc(-c4cccc(F)c4)n3n2)c1 | 1.2% |
| Cl.Cl.Cl.Cn1cc(-c2[nH]c3cc(NC(=O)[C@H](N)C4CCCCC4)cc4c3c2C=NNC4=O)cn1 | 66.4% |
| O=C1NC(=O)C(=Cc2ccccc2OCc2ccccc2Cl)S1 | 8.15% |
| CC(Nc1nc(-c2ccc(F)c(Cl)c2)cnc1N)c1ccccc1 (stereo not drawn) | 31.2% |
| Cc1cc(NC(=O)c2sc(Nc3ccccc3)nc2N)no1 | 25% |
| Cc1ccc(NC2=CC(=O)c3sc(C)nc3C2=O)cc1 | 82.8% |
| COc1nccc(-c2c(-c3ccc(F)cc3)ncn2C2CCC(O)CC2)n1 (stereo not drawn) | 5.15% |
| CN(C)CC1CCn2cc(c3ccccc32)C2=C(C(=O)NC2=O)c2cn(c3ccccc23)CCO1 (stereo not drawn) | 91.2% |
| CC(C)n1cnc2c(Nc3ccc(-c4ccccn4)cc3)nc(N[C@H](C)CO)nc21 | 53.5% |
| O=C(Nc1ccc(N2CCOCC2)cc1)Nc1ccc(Cl)c(Cl)c1 | 29.9% |
| Nc1nc(SCc2ccc(Cl)cc2Cl)c2nc[nH]c2n1 | 29% |
| Cc1ccc(NC(=O)c2ccc(CN3CC[C@H](N(C)C)C3)c(C(F)(F)F)c2)cc1Nc1nccc(-c2cncnc2)n1 | 48.9% |
| CNC(=O)c1cccc(-c2ccc3c(N4CCOC[C@@H]4C)nc(N4CCOC[C@@H]4C)nc3n2)c1 | -26.1% |
| N#CC(=Cc1cccnc1)c1nc2ccccc2s1 | 23% |
| Nc1nccc(-c2c(-c3ccc(F)cc3)ncn2C2CCNCC2)n1 | 19.1% |

A few entries again (set 2):
| Structure (SMILES) | nuclear SOX9 intensity |
| --- | --- |
| CC1CCc2c(cc(Br)c(F)c2Br)N1C=O (stereo not drawn) | 100 % of DMSO |
| CN1CCCC1CCn1cc(C2=C(c3c[nH]c4ccccc34)C(=O)NC2=O)c2ccccc21 (stereo not drawn) | 113 % of DMSO |
| Cc1[nH]c(/C=C2\C(=O)Nc3cc(-c4ccccc4)ccc32)c(C)c1CCC(=O)O | 185 % of DMSO |
| O=C(Oc1nsnc1N1CCCCC1)N1CCOCC1 | 101 % of DMSO |
| CCC(=N\O)/C(C)=C/c1ccc(F)cc1 | 108 % of DMSO |
| c1ccc2c(c1)CCCC2C1=NCCN1 (stereo not drawn) | 89.7 % of DMSO |
